Measured values pooled from the literature.
Lines come from different studies, so protocols differ. “And” joins repeats or separate records; there may be more than shown. Numbers after ± are the reported error.
BEST2: Bestrophin-2a (BEST2, Homo sapiens, UniProt Q8NFU1)
Chain of UniProt Q8NFU1 (whole entry, looked up): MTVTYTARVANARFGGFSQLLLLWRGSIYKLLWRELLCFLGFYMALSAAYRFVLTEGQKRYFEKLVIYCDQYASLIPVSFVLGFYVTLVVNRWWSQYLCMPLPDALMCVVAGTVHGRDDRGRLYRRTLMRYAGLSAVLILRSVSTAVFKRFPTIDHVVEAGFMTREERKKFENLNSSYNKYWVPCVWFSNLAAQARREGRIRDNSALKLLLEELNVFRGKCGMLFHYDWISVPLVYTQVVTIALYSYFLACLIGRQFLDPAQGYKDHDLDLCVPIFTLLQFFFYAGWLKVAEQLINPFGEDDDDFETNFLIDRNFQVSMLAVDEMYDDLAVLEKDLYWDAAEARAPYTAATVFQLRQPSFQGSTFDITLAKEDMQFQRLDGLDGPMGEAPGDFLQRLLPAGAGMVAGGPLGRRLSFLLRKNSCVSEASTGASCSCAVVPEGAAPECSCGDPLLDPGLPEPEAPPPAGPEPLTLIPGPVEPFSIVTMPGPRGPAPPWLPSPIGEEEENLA
TOP2A: DNA topoisomerase 2-alpha (TOP2A, Homo sapiens, UniProt P11388)
Chain of UniProt P11388 (whole entry, looked up): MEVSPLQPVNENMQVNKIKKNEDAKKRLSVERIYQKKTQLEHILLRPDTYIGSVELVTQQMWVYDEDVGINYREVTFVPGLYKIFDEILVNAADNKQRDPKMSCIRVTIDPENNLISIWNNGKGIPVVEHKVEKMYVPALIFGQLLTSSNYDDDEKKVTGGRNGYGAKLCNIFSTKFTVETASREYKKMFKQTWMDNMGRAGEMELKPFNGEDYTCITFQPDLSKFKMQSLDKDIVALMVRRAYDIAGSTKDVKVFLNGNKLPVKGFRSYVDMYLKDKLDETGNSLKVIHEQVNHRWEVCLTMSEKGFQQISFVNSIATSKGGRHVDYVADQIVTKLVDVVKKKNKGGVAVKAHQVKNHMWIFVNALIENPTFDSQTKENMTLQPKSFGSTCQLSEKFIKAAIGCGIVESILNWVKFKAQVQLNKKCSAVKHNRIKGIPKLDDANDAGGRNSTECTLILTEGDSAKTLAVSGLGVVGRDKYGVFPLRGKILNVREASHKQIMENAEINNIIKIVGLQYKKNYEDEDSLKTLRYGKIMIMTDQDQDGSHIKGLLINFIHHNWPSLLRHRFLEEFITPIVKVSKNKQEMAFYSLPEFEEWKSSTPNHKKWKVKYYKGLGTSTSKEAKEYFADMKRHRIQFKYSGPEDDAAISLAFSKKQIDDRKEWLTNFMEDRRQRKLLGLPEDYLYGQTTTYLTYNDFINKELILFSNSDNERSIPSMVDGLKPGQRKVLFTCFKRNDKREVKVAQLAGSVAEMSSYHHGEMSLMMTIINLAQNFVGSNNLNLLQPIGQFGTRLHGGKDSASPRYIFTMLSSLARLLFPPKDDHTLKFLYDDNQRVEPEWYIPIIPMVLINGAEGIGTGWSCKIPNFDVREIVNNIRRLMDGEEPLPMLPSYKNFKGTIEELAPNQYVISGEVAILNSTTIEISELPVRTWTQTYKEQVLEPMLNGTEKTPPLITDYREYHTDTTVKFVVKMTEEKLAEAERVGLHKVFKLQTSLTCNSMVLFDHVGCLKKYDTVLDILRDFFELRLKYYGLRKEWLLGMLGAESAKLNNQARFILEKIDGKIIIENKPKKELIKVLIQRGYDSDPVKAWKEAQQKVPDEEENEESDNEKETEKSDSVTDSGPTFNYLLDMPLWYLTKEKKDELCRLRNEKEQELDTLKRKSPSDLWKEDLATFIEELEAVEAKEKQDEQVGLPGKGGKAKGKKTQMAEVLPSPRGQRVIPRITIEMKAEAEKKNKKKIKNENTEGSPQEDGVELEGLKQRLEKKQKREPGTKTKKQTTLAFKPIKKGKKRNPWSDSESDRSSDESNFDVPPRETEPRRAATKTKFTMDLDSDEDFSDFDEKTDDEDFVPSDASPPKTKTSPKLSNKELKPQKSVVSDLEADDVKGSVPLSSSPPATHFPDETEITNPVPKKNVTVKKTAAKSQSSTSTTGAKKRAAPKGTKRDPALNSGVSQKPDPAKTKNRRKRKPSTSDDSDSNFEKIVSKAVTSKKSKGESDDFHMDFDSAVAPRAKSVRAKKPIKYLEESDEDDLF
PKN1: Serine/threonine-protein kinase N1 (PKN1, Homo sapiens, UniProt Q16512)
MKC1: Mitogen-activated protein kinase MKC1 (MKC1, Candida albicans, UniProt P43068)
Chain of UniProt P43068 (whole entry, looked up): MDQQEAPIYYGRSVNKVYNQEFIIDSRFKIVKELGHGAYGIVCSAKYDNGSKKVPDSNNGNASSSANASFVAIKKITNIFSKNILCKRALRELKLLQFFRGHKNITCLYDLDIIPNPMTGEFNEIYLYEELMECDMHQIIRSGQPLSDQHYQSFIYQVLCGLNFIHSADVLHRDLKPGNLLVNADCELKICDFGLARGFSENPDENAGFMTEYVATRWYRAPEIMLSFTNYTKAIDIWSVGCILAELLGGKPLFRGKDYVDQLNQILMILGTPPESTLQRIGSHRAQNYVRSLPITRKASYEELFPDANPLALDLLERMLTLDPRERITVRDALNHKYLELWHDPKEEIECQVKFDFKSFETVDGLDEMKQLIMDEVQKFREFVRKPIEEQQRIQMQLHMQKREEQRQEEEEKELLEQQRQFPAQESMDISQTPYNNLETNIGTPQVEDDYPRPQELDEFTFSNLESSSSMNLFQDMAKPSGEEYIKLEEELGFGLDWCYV
Pteridine reductase 1: Pteridine reductase 1 (Leishmania major, UniProt Q01782)
Chain of UniProt Q01782 (whole entry, looked up): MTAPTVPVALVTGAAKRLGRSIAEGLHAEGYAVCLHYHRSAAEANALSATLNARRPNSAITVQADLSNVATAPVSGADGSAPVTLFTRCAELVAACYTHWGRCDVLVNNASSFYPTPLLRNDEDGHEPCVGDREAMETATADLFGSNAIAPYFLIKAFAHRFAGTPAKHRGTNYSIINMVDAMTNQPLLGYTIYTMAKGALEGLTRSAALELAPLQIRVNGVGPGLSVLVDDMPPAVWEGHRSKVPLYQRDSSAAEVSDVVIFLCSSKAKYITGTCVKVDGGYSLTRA
T1: G-quadruplex RNA (Caenorhabditis elegans); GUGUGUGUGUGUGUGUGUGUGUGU
T2: RNA aptamer; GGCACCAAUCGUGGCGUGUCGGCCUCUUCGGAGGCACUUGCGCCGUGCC
Chain of UniProt Q16774 (whole entry, unmodified, looked up): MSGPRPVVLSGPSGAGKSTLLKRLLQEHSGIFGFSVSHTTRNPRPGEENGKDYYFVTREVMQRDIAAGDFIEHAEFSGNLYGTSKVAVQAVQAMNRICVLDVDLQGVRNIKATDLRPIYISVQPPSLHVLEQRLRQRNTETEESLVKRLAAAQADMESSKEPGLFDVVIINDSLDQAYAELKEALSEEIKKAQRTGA
Chain of UniProt O76090 (whole entry, looked up): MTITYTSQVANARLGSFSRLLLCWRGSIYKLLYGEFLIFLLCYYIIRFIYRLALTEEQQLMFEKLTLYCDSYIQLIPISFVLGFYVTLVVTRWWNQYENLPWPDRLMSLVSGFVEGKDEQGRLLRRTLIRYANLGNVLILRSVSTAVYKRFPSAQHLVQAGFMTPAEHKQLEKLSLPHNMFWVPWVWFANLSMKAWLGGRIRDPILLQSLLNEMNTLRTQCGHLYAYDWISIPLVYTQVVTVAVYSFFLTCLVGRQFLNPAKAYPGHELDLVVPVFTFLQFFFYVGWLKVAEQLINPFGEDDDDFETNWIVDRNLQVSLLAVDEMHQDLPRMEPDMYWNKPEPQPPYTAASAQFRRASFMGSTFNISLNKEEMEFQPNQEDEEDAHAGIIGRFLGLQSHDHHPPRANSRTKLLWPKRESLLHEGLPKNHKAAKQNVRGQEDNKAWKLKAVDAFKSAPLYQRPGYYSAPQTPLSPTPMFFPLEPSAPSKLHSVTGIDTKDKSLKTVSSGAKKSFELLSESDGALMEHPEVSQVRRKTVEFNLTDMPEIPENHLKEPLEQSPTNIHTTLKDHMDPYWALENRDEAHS
Chain of UniProt P51575 (whole entry, unmodified, looked up): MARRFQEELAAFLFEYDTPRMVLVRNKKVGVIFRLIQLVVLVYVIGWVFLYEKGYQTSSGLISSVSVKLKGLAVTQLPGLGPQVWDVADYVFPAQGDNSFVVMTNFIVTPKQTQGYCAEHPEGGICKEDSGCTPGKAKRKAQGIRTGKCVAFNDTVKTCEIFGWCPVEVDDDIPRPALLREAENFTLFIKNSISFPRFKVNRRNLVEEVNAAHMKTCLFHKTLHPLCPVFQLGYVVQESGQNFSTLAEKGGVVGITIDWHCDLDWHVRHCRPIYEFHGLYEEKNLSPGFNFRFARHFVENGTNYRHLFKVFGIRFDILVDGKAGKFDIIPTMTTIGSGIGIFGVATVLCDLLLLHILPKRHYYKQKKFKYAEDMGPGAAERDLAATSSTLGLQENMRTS
Chain of UniProt P00441 (whole entry, unmodified, looked up): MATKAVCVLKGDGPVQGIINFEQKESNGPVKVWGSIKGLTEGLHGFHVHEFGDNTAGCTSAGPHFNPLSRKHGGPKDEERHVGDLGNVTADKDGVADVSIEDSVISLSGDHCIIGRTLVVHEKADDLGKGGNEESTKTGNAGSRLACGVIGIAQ
Chain of UniProt Q96RI1 (whole entry, looked up): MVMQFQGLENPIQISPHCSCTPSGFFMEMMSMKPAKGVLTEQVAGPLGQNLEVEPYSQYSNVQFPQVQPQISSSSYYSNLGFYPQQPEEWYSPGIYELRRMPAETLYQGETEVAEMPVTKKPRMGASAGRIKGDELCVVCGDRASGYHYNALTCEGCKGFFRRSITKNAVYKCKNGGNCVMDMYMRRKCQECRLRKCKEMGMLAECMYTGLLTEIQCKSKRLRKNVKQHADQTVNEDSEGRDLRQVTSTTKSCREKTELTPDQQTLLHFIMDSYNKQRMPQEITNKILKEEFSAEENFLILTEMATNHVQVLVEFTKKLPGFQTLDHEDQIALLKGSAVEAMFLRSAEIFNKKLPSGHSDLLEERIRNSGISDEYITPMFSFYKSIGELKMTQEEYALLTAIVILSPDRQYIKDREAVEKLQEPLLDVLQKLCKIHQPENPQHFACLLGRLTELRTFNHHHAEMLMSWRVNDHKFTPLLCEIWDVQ
Chain of UniProt Q9NZQ7 (whole entry, looked up): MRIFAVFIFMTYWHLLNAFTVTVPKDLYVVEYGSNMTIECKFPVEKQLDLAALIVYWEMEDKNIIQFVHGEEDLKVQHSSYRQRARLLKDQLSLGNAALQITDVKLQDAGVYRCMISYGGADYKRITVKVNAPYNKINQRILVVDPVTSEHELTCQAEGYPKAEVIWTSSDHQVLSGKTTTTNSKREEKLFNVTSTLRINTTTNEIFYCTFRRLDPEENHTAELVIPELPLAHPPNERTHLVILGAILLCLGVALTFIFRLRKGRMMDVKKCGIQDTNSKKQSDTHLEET

O=C(O)c1ccc([N+](=O)[O-])cc1
current density (BEST2; whole-cell patch clamp; HEK293 transiently expressing channel; concentration not given, membrane potential 40 mV): 130 pA/pF and 101 pA/pF and 36.3 pA/pF and 124 pA/pF and 152 pA/pF

O=c1nc(SCc2ccc(C(F)(F)F)cc2)nc(SCc2csc3ccc(Cl)cc23)[nH]1
relaxed DNA (TOP2A; DNA relaxation; 1.95 µM, replicate 1): 90.4%

C=CC(=O)N1CCC[C@@H](n2nc(-c3ccc(Oc4ccccc4)cc3)c3c(N)ncnc32)C1
remaining activity (PTK6 (Homo sapiens, UniProt Q13882); 0.1 µM): 127%

O=c1nc(SCc2cc(F)cc(C(F)(F)F)c2)nc(SCc2cccc(C(F)(F)F)c2)[nH]1
mean decatenated DNA (TOP2A; decatenation; 125 µM): 0%

CC[C@H](CO)N(CCN(N=O)[C@H](CC)CO)N=O
revertant colonies per plate (Salmonella typhimurium; plate incorporation; TA1535, water; 2500 µg/plate, without S9 test 2): 26.7 ± 5

C[C@@H]1C[C@H](Nc2ccccc2)c2cc(F)ccc2N1C(=O)c1cncnc1
pIC50 Z-score (Ecdysone receptor (Aedes albopictus, UniProt Q9U3Y4); ligand binding, inhibitor; intact cells; added: [3H]ponasterone A; direction not given): -1.25

c1ccc(CCCOCCc2ccc3[nH]cnc3c2)cc1
ATPase activity (ATP2A2 (Sus scrofa, UniProt P11607); NADH-coupled; microsomes; concentration not given): inactive

O=c1nc(SCc2cc(F)cc(C(F)(F)F)c2)nc(SCc2ccc3ncsc3c2)[nH]1
decatenated DNA (TOP2A; decatenation; 31.25 µM, replicate 2): 56.2%

Nc1nc(N)c2c(n1)CCCC2
exchange rate kex (folA (Escherichia coli, UniProt P0ABQ4); concentration not given, ternary complex with NADPH): 543 ± 114 s⁻¹

[Zn+2]
remaining current (Otop1 (Mus musculus, UniProt Q80VM9); acid-evoked current, inhibitor, whole-cell patch-clamp; HEK293T; 1 mM, pH 5.5, unit not given; relative to: current before compound): 0.179

C[C@@H](N)[C@H]1CC[C@H](C(=O)Nc2ccncc2)CC1
Hill slope (PKN1; inhibitor): -0.841

c1ccc(-c2n[nH]cc2-c2ccnc3ccccc23)nc1
log2 fold change (MKC1; kinase binding, competitor, MIB/MS competition, measured: MKC1; Candida albicans cell lysate; 100 nM; relative to: DMSO): 1.48

CC(C)c1cccc2c(-c3ccccc3)cc(-c3ccc(-c4ccc(C(=O)O)cc4)[nH]3)nc12
selectivity ratio (RARB (Homo sapiens, UniProt P10826); reporter gene, antagonist; relative to: IC50 RARα over IC50 RARB): > 100 fold

CCc1c(C)c2cc3nc(cc4nc(cc5c(CC)c(C)c(cc1[nH]2)n5C)C(C)=C4CCC(=O)O)C(CCC(=O)O)=C3C
binding (T1, G-quadruplex RNA (Caenorhabditis elegans); X-ray crystallography): binds

Nc1ccc(C(=O)O)cc1
current density (BEST1 (Homo sapiens, UniProt O76090); whole-cell patch clamp; HEK293 transiently expressing channel; concentration not given, membrane potential -100 mV): -54.4 pA/pF and -112 pA/pF and -99.2 pA/pF and -55.2 pA/pF and -84.9 pA/pF and -59.7 pA/pF and -74.2 pA/pF

O=C(Nc1cccc2ncccc12)C1CCCN(S(=O)(=O)c2cccs2)C1 (stereo not shown)
SPR response (AASS, LKR domain (Homo sapiens, UniProt Q9UDR5); binding, surface plasmon resonance; 5 µM): 2.65 RU

Nc1ncnc2c1ncn2[C@@H]1O[C@H](CO[P@](=O)(O)O[P@](=O)(O)O[P@@](=O)(O)S)[C@@H](O)[C@H]1O
ΔH (GUK1 (Homo sapiens, UniProt Q16774, S13A); binding, ITC): -2.62 ± 0.19 kcal/mol

NCCCC(=O)O
normalised MST signal (SLC6A6 (Homo sapiens, UniProt P31641, L306A); binding, microscale thermophoresis; 30.5 nM, room temperature, added: 50 nM labelled protein; higher = more binding): 0.174

O=c1nc(SCc2cc(F)cc(C(F)(F)F)c2)nc(SCc2ccc3nc(OCCN4CCOCC4)ccc3c2)[nH]1
decatenated DNA (TOP2A; decatenation; 31.25 µM, replicate 2): 0.6%

CCCCCCCC/C=C\CCCCCCCC(=O)NCCc1ccc(O)c(O)c1
Hill coefficient (Trpv1 (Mus musculus, UniProt Q704Y3, T551V); ion current, agonist, whole-cell patch clamp; T551V): 2.35 ± 0.26

COc1cc(F)ccc1-c1ncnc(Nc2cccc(C[S@](C)(=N)=O)c2)n1
remaining activity (RPS6KB1 (Homo sapiens, UniProt P23443); kinase activity; 10 µM, added: 10 µM ATP): 97%

Nc1nc(N)c2nc(C(=O)NCc3ccccc3)cnc2n1
partition index (Pteridine reductase 1; hDHFR weight 10; relative to: LmPTR1, LmDHFR over hDHFR, 1.0 selective, 0.0 non-selective): 0.66

O=c1nc(SCc2cc(F)cc(C(F)(F)F)c2)nc(SCc2nc3ccccc3[nH]2)[nH]1
decatenated DNA (TOP2A; decatenation; 31.25 µM, replicate 2): 48%

CN(CCO)c1ccc(/C=C(\C#N)c2ccc(C#N)cc2)cc1
Kd (T2, RNA aptamer; fluorescence titration, Hill fit; apparent): 572 nM

O=C1C(SCCO)=C(SCCO)C(=O)c2ccccc21
IC50 fold increase (TGM2 (Homo sapiens, UniProt P21980); transglutaminase activity, inhibitor; added: 0.02% Triton X-100; relative to: with over without Triton X-100): 1.3 to 2.5 fold

CC[C@@H]1[C@H](F)C(=O)N[C@@H]1COc1nccc2cc(C(N)=O)c(OC)cc12
inhibition (CHEK2 (Homo sapiens, UniProt O96017); ATP-site probe binding, ActivX profiling; THP-1 cell lysate; 0.01 mM, Lys1 site): 4.5%

N#Cc1ccc(C[C@H](Nc2c(Nc3ccc(Br)cc3)c(=O)c2=O)C(=O)N2CCc3ccccc32)cc1
agonist activity (FPR1 (Homo sapiens, UniProt P21462); calcium mobilization, agonist; HL-60; concentration not given): inactive

CC(C)NCC(O)c1ccc(O)c(O)c1 (stereo not shown)
sarcomere length (ventricular cardiomyocytes, C57BL/6 mouse; dose not given, 0.004 s): 1.72 µm

O=c1nc(SCc2ccc(C(F)(F)F)cc2)nc(SCc2ccc3sccc3c2)[nH]1
decatenated DNA (TOP2A; decatenation; 125 µM, replicate 2): 0%

NS(=O)(=O)C(F)(F)F
intrinsic binding TΔS (CA4 (Homo sapiens, UniProt P22748); ITC; concentration not given, 25 °C): 5.02 kcal/mol

O=c1ccc2nc3ccc(O[C@@H]4O[C@H](CO)[C@@H](O)[C@H](O)[C@H]4O)cc3oc-2c1
catalytic efficiency ratio (GBA1 (Homo sapiens, UniProt P04062, R534H); substrate; relative to: cpd over 4MU-β-glc): ~700

Nc1ncnc2c1ncn2[C@@H]1O[C@H](COP(=O)(O)OP(=O)(O)OP(=O)(O)O)[C@@H](O)[C@H]1O
channel reactivation (Sulfonylurea receptor 1, Kir6.2 (Homo sapiens, UniProt Q09428+Q14654); inside-out patch clamp; HEK293; concentration not given, after Ca2+ exposure 5 min; relative to: control): 10 to 15%

Cc1nc(CSc2nc(SCc3ccc(C(F)(F)F)cc3)nc(=O)[nH]2)cs1
mean decatenated DNA (TOP2A; decatenation; 15.6 µM): 94.5%

c1coc(-c2n[nH]cc2-c2ccnc3ccccc23)c1
log2 fold change (MKC1; kinase binding, MIB/MS competition; Candida albicans lysate; 10 µM; relative to: DMSO, negative = stronger binding): -0.24

O=c1nc(SCc2cc(F)cc(C(F)(F)F)c2)nc(SCc2ccc3nc(Cl)ccc3c2)[nH]1
ATP hydrolysis rate (TOP2A; ATPase activity; 31.25 µM, added: ATP 0.75 mM): 1.67 µM/min and 2.38 µM/min

O=C(O)[C@@H]1CCCN1c1ncnc2[nH]cnc12 (racemic)
fold enrichment (Histone-lysine N-methyltransferase SETDB1, triple tudor domain (SETDB1, Homo sapiens, UniProt Q15047); binding, affinity selection mass spectrometry; relative to: other proteins in batch): 0.997

COc1cccc2c(Nc3ccc4[nH]c(C(=O)N/N=C/c5ccc(SC)cc5)cc4c3)cc(C)nc12
activation (Bile acid receptor (NR1H4, Homo sapiens, UniProt Q96RI1); reporter gene, Gal4 hybrid reporter; 3 µM; relative to: vehicle): 0.75 fold

Nc1ncnc2c1ncn2[C@@H]1O[C@H](COP(=O)(O)CP(=O)(O)OP(=O)(O)O)[C@@H](O)[C@H]1O
specific binding (P2X purinoceptor 1 (P2RX1, Homo sapiens, UniProt P51575, F188L); saturation binding; HEK293; 52 nM): 3570 CCPM and 5100 CCPM

CN(C)C(=O)C(CCN1CCC(O)(c2ccc(Cl)cc2)CC1)(c1ccccc1)c1ccccc1
normalized Gmax (Calcium-activated potassium channel subunit alpha-1, with LRRC26 γ1 subunit (KCNMA1, Homo sapiens, UniProt Q12791); BK current, inhibitor, inside-out patch clamp; excised membrane patch; 30 µM, γ1 coexpressed, individual fits, added: nominally 0 Ca2+ cytosolic; relative to: without loperamide): 0.117 ± 0.036

O=c1c2nc(Br)n([C@@H]3O[C@@H]4COP(=O)(O)O[C@H]4[C@H]3O)c2nc2[nH]c(-c3ccccc3)cn12
relative binding affinity (anti-cGMP antibody; antibody binding, competitive cGMP EIA; concentration not given, acetylated samples; relative to: EC50 cGMP over EC50 cpd, higher = stronger binding): 0.101

CCC(C)(NCCc1ccccc1)c1cccc(NC2=CC(=O)N(C3CCC(=O)NC3=O)C2=O)c1 (stereo not shown)
Dmax (Cereblon/Ikaros (Homo sapiens, UniProt Q13422+Q96SW2); protein degradation, degrader, HiBiT luminescence; Jurkat): 64%

Nc1nc2c(ncn2[C@@H]2O[C@H](COP(=O)(O)O)[C@@H](O)[C@H]2O)c(=O)[nH]1
reaction rate (GUK1 (Homo sapiens, UniProt Q16774, E72A); enzyme activity, NADH-coupled; 7.812 µM): -0.423 s⁻¹ and -0.449 s⁻¹ and 0.107 s⁻¹

[O-][S+]1CCCCS1 (stereo not shown)
SOD1 dimer level (SOD1 (Homo sapiens, UniProt P00441, G94A); target engagement; SOD1 G93A transgenic mice, brain; subcutaneous, 30 mg/kg twice daily): 89.3% and 80.2%

COc1ccc(CNC(=O)c2ccc(CNCc3cnc4nc(N)nc(N)c4n3)cc2)cc1OC
partition index (Pteridine reductase 1; hDHFR weight 10; relative to: LmPTR1, LmDHFR over hDHFR, 1.0 selective, 0.0 non-selective): 0.87

CC(C)C[C@H](NC(=O)C[C@H](O)[C@H](CC(C)C)NC(=O)[C@H](Cc1c[nH]cn1)NC(=O)CNC(=O)[C@@H](NC(=O)[C@H](C)NC(=O)[C@H](Cc1c[nH]c2ccccc12)NC(=O)[C@H](CCC(N)=O)NC(=O)[C@@H](Cc1ccccc1)NC(=O)COCCOCCNC(=O)CCC(C(=O)O)N1CCN(CC(=O)O)CCN(CC(=O)O)CCN(CC(=O)O)CC1)C(C)C)C(N)=O (stereo partly shown) [lutetium-177 labelled]
tissue uptake (female BALB/c nu/nu mice, heart; intravenous, 100 pmol, 2 h, added: PA 300 µg): 0.08 ± 0.03 %ID/g

O=C(O)C1=CCNCC1
current density (BEST2; whole-cell patch clamp; HEK293 transiently expressing channel; concentration not given, membrane potential 100 mV): 99.3 pA/pF and 256 pA/pF and 207 pA/pF and 223 pA/pF and 372 pA/pF

CN(c1ccccc1CNc1nc(Nc2ccc3c(c2)CC(=O)N3)ncc1C(F)(F)F)S(C)(=O)=O
Hill slope (PKN1; inhibitor): -0.613

Nc1ncnc2c1ncn2[C@@H]1O[C@H](CSCC[C@H](N)C(=O)O)[C@@H](O)[C@H]1O
cooperativity factor σ (O-methyltransferase (Sorghum bicolor, UniProt A0A1B6PFV1); biolayer interferometry; added: saturating RSV): 6.44

COc1ccc(C(=O)/C=C/c2cccc(-c3cccc(-c4ccc(CNC5CCC(=O)NC5=O)c(OC)n4)c3C)c2)cc1 (stereo not shown)
degradation (CD274 (Homo sapiens, UniProt Q9NZQ7); degrader, western blot; HL-60; 1 µM): < 5%

For quick reference, copied from above:
Nc1ncnc2c1ncn2[C@@H]1O[C@H](CSCC[C@H](N)C(=O)O)[C@@H](O)[C@H]1O
cooperativity factor σ (O-methyltransferase (Sorghum bicolor, UniProt A0A1B6PFV1); biolayer interferometry; added: saturating RSV): 6.44

CCC(C)(NCCc1ccccc1)c1cccc(NC2=CC(=O)N(C3CCC(=O)NC3=O)C2=O)c1 (stereo not shown)
Dmax (Cereblon/Ikaros (Homo sapiens, UniProt Q13422+Q96SW2); protein degradation, degrader, HiBiT luminescence; Jurkat): 64%

O=c1nc(SCc2cc(F)cc(C(F)(F)F)c2)nc(SCc2ccc3nc(OCCN4CCOCC4)ccc3c2)[nH]1
decatenated DNA (TOP2A; decatenation; 31.25 µM, replicate 2): 0.6%
